Measured values pooled from the literature.
GBA2: Beta-glucosidase (GBA2, Homo sapiens, UniProt Q9HCG7)
Sequence of UniProt Q9HCG7 (whole entry, looked up): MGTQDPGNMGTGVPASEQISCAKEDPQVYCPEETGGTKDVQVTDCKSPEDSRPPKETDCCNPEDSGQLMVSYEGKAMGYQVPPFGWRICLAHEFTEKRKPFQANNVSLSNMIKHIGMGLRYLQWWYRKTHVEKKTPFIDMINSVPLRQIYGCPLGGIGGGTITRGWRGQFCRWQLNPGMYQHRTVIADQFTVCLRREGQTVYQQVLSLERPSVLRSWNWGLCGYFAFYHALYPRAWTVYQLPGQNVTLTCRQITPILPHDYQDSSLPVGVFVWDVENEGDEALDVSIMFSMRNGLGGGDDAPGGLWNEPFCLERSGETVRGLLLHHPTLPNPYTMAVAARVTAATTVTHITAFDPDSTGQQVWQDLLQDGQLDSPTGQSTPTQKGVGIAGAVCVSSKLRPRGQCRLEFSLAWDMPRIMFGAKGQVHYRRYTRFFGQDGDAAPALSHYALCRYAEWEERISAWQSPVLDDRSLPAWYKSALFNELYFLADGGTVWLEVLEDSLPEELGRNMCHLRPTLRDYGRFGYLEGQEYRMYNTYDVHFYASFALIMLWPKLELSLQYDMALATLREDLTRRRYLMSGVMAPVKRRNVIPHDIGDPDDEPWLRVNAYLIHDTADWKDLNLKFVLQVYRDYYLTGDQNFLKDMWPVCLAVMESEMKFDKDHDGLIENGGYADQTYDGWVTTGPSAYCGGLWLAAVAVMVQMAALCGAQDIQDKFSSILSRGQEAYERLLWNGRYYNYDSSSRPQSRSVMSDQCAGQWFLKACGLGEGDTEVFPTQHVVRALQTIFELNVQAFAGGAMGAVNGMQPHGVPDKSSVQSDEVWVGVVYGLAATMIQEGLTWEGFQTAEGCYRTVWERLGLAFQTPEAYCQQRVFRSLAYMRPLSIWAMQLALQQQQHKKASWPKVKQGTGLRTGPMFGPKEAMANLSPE

The tracer uptake of CC[C@H](C)[C@H](NC(=O)C[C@H](NC(=O)CN1CCN2CCN(CC1)CC(=O)[O][Al]([18F])[O]C(=O)C2)C(=O)O)C(=O)N[C@H]1CCc2cccc3c2N(C1=O)[C@H](C(=O)NCc1cn[nH]n1)C3 is reported as 0.62 %ID/g (MC-38 tumour model; host not given, heart; 30 min, tumour-bearing).
For N#C[C@@H]1CCCN1C(=O)CNC(=O)c1ccnc2ccc(OCCCN3CCN(C(=O)CCc4ccc5c(c4)CN4CCN6CC(=O)[O][68Ga-]([O]C(=O)C4)([O]5)[O]c4ccc(CCC(=O)N5CCN(CCCOc7ccc8nccc(C(=O)NCC(=O)N9CCC[C@H]9C#N)c8c7)CC5)cc4C6)CC3)cc12, the tracer uptake was 4.12 %ID/g (U-87 MG tumour model; host not given, bone; 1 h, tumour-bearing).
COc1cccc(OC)c1-c1cc(C(=O)NC2(C(=O)O)C3CC4CC(C3)CC2C4)nn1-c1ccc(C(=O)N(C)CCOCCN(C)C(=O)[C@H](CCCCNC(=O)[C@H](CC(C)C)NC(=O)C2OC2C(=O)O)NC(=O)CN2CCN(CC(=O)[O-])CCN(CC(=O)[O-])CCN(CC(=O)[O-])CC2)cc1C(C)C.[177Lu+3] (mixture of isomers) has a tracer uptake of 1 %ID/g (HT-29 tumour model; host not given, bone; 72 h, tumour-bearing).
For CCCCOCCCCCN1C[C@H](O)[C@@H](O)[C@H](O)[C@H]1CO, the selectivity ratio was 67 (GBA2; inhibitor, 4MU-β-D-glucopyranoside; HEK293T homogenates overexpressing GBA2; baseline: GCS IC50 over GBA2 IC50).
The tracer uptake of CC(C)Cc1ccc(C(C)C(=O)N[C@@H](CCCCNC(=O)CCOCCOCCOCCOCCOCCOCCNC(=O)CN2CCN(CC(=O)[O-])CCN(CC(=O)[O-])CCN(CC(=O)[O-])CC2)C(=O)Nc2cccc3c(C(=O)NCC(=O)N4CC(F)(F)C[C@H]4C#N)ccnc23)cc1.[177Lu+3] (stereo partly drawn) is reported as 19.4 %ID/g (U-87 MG tumour model; host not given, tumour; 4 h, tumour-bearing).
For CCCCCCCCN1C[C@H](O)[C@@H](O)[C@H](O)[C@@H]1CO, the selectivity ratio was 1160 (GBA2; inhibitor, 4MU-β-D-glucopyranoside; HEK293T homogenates overexpressing GBA2; baseline: GBA1 IC50 over GBA2 IC50).
Under “log2 fold change”, COC1CN([C@H]2CC[C@H]([C@@]3(C)Oc4c(Cl)cc(C(=O)NCc5c(SC)cc(C)[nH]c5=O)c(C)c4O3)CC2)C1 is recorded as 1.28 (RNA-seq, item: ACP3; human, whole blood; dose not given, 24 h; baseline: pretreatment baseline).
With N#C[C@@H]1CCCN1C(=O)CNC(=O)c1ccnc2ccc(OCCCN3CCN(C(=O)CCc4ccc5c(c4)CN4CCN(Cc6cc(CCC(=O)O)ccc6O)CC(=O)[O][Al-]([18F])([O]C(=O)C4)[O]5)CC3)cc12 (stereo partly drawn) the tracer uptake was 11.7 %ID/g (U-87 MG tumour model; host not given, intestine; 2 h, tumour-bearing).
COc1cccc(OC)c1-c1cc(C(=O)NC2(C(=O)O)C3CC4CC(C3)CC2C4)nn1-c1ccc(C(=O)N(C)CCCN(C)C(=O)[C@H](CCCCNC(=O)[C@H](CC(C)C)NC(=O)C2OC2C(=O)O)NC(=O)CN2CCN(CC(=O)[O-])CCN(CC(=O)[O-])CCN(CC(=O)[O-])CC2)cc1C(C)C.[177Lu+3] (mixture of isomers) gave a tracer uptake of 0.039 %ID/g (HT-29 tumour model; host not given, stomach; 7 days, tumour-bearing).
N#C[C@@H]1CC(F)(F)CN1C(=O)CNC(=O)c1ccnc2c(NC(=O)CCOCCOCCOCCOCCOCCOCCNC(=O)[C@H](CCCCNC(=O)CN3CCN(CC(=O)[O-])CCN(CC(=O)[O-])CCN(CC(=O)[O-])CC3)NC(=O)CCCc3ccc(I)cc3)cccc12.[177Lu+3] has a tracer uptake of 0.32 %ID/g (U-87 MG tumour model; host not given, bone; 48 h, tumour-bearing).
The tracer uptake of COc1cccc(OC)c1-c1cc(C(=O)NC2(C(=O)O)C3CC4CC(C3)CC2C4)nn1-c1ccc(C(=O)N(C)CCCN(C)CCCN(C)C(=O)[C@H](CCCCNC(=O)[C@H](CC(C)C)NC(=O)C2OC2C(=O)O)NC(=O)CN2CCN(CC(=O)[O-])CCN(CC(=O)[O-])CCN(CC(=O)[O-])CC2)cc1C(C)C.[177Lu+3] (mixture of isomers) is reported as 1.1 %ID/g (HT-29 tumour model; host not given, bone; 4 h, tumour-bearing).
N#C[C@@H]1CC(F)(F)CN1C(=O)CNC(=O)c1ccnc2c(NC(=O)[C@H](CCCCNC(=O)CCOCCOCCOCCOCCOCCOCCNC(=O)CN3CCN(CC(=O)[O-])CCN(CC(=O)[O-])CCN(CC(=O)[O-])CC3)NC(=O)CCCc3ccc(I)cc3)cccc12.[177Lu+3] has a tracer uptake of 42.5 %ID/g (U-87 MG tumour model; host not given, tumour; 1 h, tumour-bearing).

Some of these lines once more:
For CCCCOCCCCCN1C[C@H](O)[C@@H](O)[C@H](O)[C@H]1CO, the selectivity ratio was 67 (GBA2; inhibitor, 4MU-β-D-glucopyranoside; HEK293T homogenates overexpressing GBA2; baseline: GCS IC50 over GBA2 IC50).
With N#C[C@@H]1CCCN1C(=O)CNC(=O)c1ccnc2ccc(OCCCN3CCN(C(=O)CCc4ccc5c(c4)CN4CCN(Cc6cc(CCC(=O)O)ccc6O)CC(=O)[O][Al-]([18F])([O]C(=O)C4)[O]5)CC3)cc12 (stereo partly drawn) the tracer uptake was 11.7 %ID/g (U-87 MG tumour model; host not given, intestine; 2 h, tumour-bearing).
